Measurements pooled from the literature.
Lines come from different studies, so protocols differ.

Cc1cc(NC2CCN(C(=O)OC3CCN(C(=O)/C=C/CN(C)C)C3)CC2)n2ncc(C(C)C)c2n1 (stereo not shown)
patients with TEAE (CTCAE v4.0, item: Headache; patients with advanced solid tumours; oral, dose not given, all schedules, grade 3 or higher): 0%

NC(=O)N1c2ccccc2C=Cc2ccccc21
patients with Fatigue (male patients; oral, dose not given, on-treatment adverse events): 27%

COc1ccc([C@@H](O)c2cc(-c3ncnc4cc(N5CCOCC5)ccc34)c(F)cc2Cl)nn1
patients with diarrhea (locally advanced rectal cancer patients; 50 mg, drug-related adverse events, added: capecitabine and radiotherapy): 100%

CNC(=O)c1cc(Oc2ccc(NC(=O)Nc3cc(C(C)(C)C)nn3-c3ccc4ncccc4c3)c(F)c2)ccn1
patients with grade 1 cardiac disorders (patients; oral, dose not given, cycles 1 and 2, Low AUC subgroup): 7%

COc1cc2nccc(Oc3ccc(NC(=O)c4cc5c(n(-c6ccccc6)c4=O)CCCC5=O)nc3)c2cc1OC
patients with drug-related serious TEAEs (patients with relapsed/refractory AML; oral, 10 mg once daily): 14.3%

COc1cc(Nc2ncc3c(n2)-c2ccc(Cl)cc2C(c2c(F)cccc2OC)=NC3)ccc1C(=O)O
patients with skin hyperpigmentation (cancer patients; oral, dose not given, all grades any attribution, added: pembrolizumab): 4%

C=CC(=O)Nc1cc(Nc2nccc(-c3cn(C)c4ccccc34)n2)c(OC)cc1N(C)CCN(C)C
patients with treatment-related AEs (item: Anemia grade ≥3; EGFR-mutant MET-altered NSCLC; oral, study): 0%

O=C(Nc1nc2cccc(-c3ccc(CN4CCS(=O)(=O)CC4)cc3)n2n1)C1CC1
patients with TEAE (item: angina pectoris; rheumatoid arthritis patients; oral, 100 mg twice daily, 4 weeks): 0%

C[C@@H](Nc1cc(F)cc(F)c1)c1cc(C(=O)N(C)C)cc2c(=O)cc(N3CCOCC3)oc12
patients discontinuing for AE (CTCAE v4, item: abdominal pain; patients with advanced solid tumours; oral, dose not given, phase I dose finding): 1.6%

C[C@@H](c1ccc2nccn2c1)n1nnc2ncc(-c3cnn(C)c3)nc21
patients with treatment-related AEs (item: Pain grade ≥3; EGFR-mutant MET-altered NSCLC; oral, study): 0%

CCOc1c([C@H](C)n2nc(C)c3c(N)ncnc32)cc(Cl)c(F)c1[C@@H]1CNC(=O)C1
patients with HR above 100 bpm (ECG; previously treated B-cell malignancy patients; oral, 10 mg once daily, baseline below thresholds): 0%

Cc1cc(-c2nnc(N)nc2-c2ccc(F)cc2)cc(Cl)n1
patients with treatment-related AE (item: Fatigue; other solid tumours, post-IO; oral, 100 mg once daily, all grades): 23.8%

CNC(=O)c1ccc(-c2cnc3ncc(Cc4ccc5ncccc5c4)n3n2)cc1F
patients with adverse event (item: Vomiting, all grades; cancer patients; oral, dose not given, dose escalation, any causality): 40%
